Assay results pooled from the literature.
± gives the spread as reported.
Organism: Escherichia coli

| Compound | test | system | setting | MIC |
| --- | --- | --- | --- | --- |
| N=C(N)NCCC[C@H](NC(=O)[C@H](Cc1c[nH]c2ccccc12)NC(=O)[C@H](CCC(N)=O)NC(=O)[C@H](Cc1c[nH]c2ccccc12)NC(=O)[C@H](CCCNC(=N)N)NC(=O)[C@H](Cc1c[nH]c2ccccc12)NC(=O)[C@H](CCC(N)=O)NC(=O)[C@H](Cc1c[nH]c2ccccc12)NC(=O)[C@@H](N)CCCNC(=N)N)C(=O)NCCCC[C@H](NC(=O)[C@H](CCCNC(=N)N)NC(=O)[C@H](Cc1c[nH]c2ccccc12)NC(=O)[C@H](CCC(N)=O)NC(=O)[C@H](Cc1c[nH]c2ccccc12)NC(=O)[C@H](CCCNC(=N)N)NC(=O)[C@H](Cc1c[nH]c2ccccc12)NC(=O)[C@H](CCC(N)=O)NC(=O)[C@H](Cc1c[nH]c2ccccc12)NC(=O)[C@@H](N)CCCNC(=N)N)C(=O)NCCCCCC(N)=O | broth microdilution | ATCC 11775 | 24 h, 37 °C | 31 µM |
| CC[C@H](C)[C@H](NC(=O)CNC(=O)[C@H](CCCCN)NC(=O)[C@H](C)NC(=O)[C@H](CCC(=O)O)NC(=O)[C@H](Cc1ccccc1)NC(=O)[C@H](CO)NC(=O)[C@H](CC(C)C)NC(=O)[C@@H](NC(=O)[C@H](CC(=O)O)NC(=O)[C@H](C)NC(=O)[C@@H](NC(=O)[C@@H](N)C(C)C)[C@@H](C)O)C(C)C)C(=O)N[C@@H](C)C(=O)N[C@H](C(=O)N[C@@H](CC(N)=O)C(=O)N[C@@H](Cc1c[nH]cn1)C(=O)N[C@@H](CO)C(=O)N[C@@H](C)C(=O)N[C@H]1CSSC[C@@H]2NC(=O)[C@H](C(C)C)NC(=O)CNC(=O)[C@H](CC(N)=O)NC(=O)[C@H](CCC(N)=O)NC(=O)[C@H](C)NC(=O)[C@H](CO)NC(=O)CNC(=O)CNC(=O)[C@H](CCCCN)NC(=O)[C@H](CCCCN)NC(=O)[C@H](CCCNC(=N)N)NC(=O)[C@H](CC(C)C)NC(=O)[C@H](C)NC(=O)[C@H]([C@@H](C)CC)NC(=O)[C@H](CSSC[C@@H](C(=O)N[C@@H](CCCNC(=N)N)C(=O)N[C@@H](CC(N)=O)C(=O)O)NC(=O)[C@H](C(C)C)NC2=O)NC(=O)[C@H](Cc2c[nH]cn2)NC(=O)[C@H](CC(C)C)NC(=O)[C@H](C)NC1=O)C(C)C | broth microdilution | KCTC 1682 | 16 h, 37 °C | > 100 µM |
| CC(C)C[C@H](NC(=O)[C@H](Cc1ccc(O)cc1)NC(=O)[C@@H]1CCCN1C(=O)[C@H](CCCNC(=N)N)NC(=O)[C@@H]1CCCN1C(=O)[C@H](CCCCN)NC(=O)[C@H](CC(=O)O)NC(=O)[C@@H]1CCCN1C(=O)[C@H](CCCNC(=N)N)NC(=O)C1(N)CCCCC1)C(=O)N1CCC[C@H]1C(=O)N[C@@H](CCCNC(=N)N)C(=O)N1CCC[C@H]1C(=O)N[C@@H](CCCNC(=N)N)C(=O)N1CCC[C@H]1C(=O)N1CCC[C@H]1C(=O)N[C@@H](CCCNC(=N)N)C(=O)N1CCC[C@H]1C(=O)N[C@H](C(=O)N[C@@H](CCCNC(=N)N)C(=O)N[C@@H](CSc1c(F)c(F)c(SC[C@H](NC(=O)[C@H](CCCNC(=N)N)NC(=O)[C@@H](NC(=O)[C@@H]2CCCN2C(=O)[C@H](CCCNC(=N)N)NC(=O)[C@@H]2CCCN2C(=O)[C@@H]2CCCN2C(=O)[C@H](CCCNC(=N)N)NC(=O)[C@@H]2CCCN2C(=O)[C@H](CCCNC(=N)N)NC(=O)[C@@H]2CCCN2C(=O)[C@H](CC(C)C)NC(=O)[C@H](Cc2ccc(O)cc2)NC(=O)[C@@H]2CCCN2C(=O)[C@H](CCCNC(=N)N)NC(=O)[C@@H]2CCCN2C(=O)[C@H](CCCCN)NC(=O)[C@H](CC(=O)O)NC(=O)[C@@H]2CCCN2C(=O)[C@H](CCCNC(=N)N)NC(=O)C2(N)CCCCC2)C(C)C)C(=O)NN)c(F)c1F)C(=O)NN)C(C)C | bacterial growth | ATCC 25922, 100% Mueller-Hinton broth | 90 min, 37 °C, strain ATCC 25922 | 6.7 ± 0.9 µg/mL |
| CC[C@H](C)[C@@H]1NC(=O)[C@@H](NC(=O)[C@H](CCCCN)NC(=O)[C@H](CC(C)C)NC(=O)[C@H](CC(C)C)NC(=O)CNC(C)=O)CN(C)C(=O)c2ccc(=O)n(c2)CC[C@@H](C(=O)N[C@@H](CC(C)C)C(N)=O)NC(=O)[C@H]([C@@H](C)O)NC(=O)[C@H](CCCCN)NC1=O | – | ATCC 25922, Mueller-Hinton broth | 20 h, 37 °C | 31 µg/mL |
| CC[C@H](C)[C@H](NC(=O)CNC(=O)[C@H](CC(N)=O)NC(=O)[C@H](CCCNC(=N)N)NC(=O)[C@H](CS)NC(=O)[C@H](CCCNC(=N)N)NC(=O)CNC(=O)CNC(=O)[C@H](CCCCN)NC(=O)[C@H](Cc1ccc(O)cc1)NC(=O)[C@H](CCCNC(=N)N)NC(=O)[C@H](CCCCN)NC(=O)[C@@H](NC(=O)[C@H](CC(C)C)NC(=O)[C@H](CS)NC(=O)[C@H](Cc1c[nH]cn1)NC(=O)[C@H](C)NC(=O)[C@H](C)NC(=O)[C@H](CS)NC(=O)[C@H](C)NC(=O)[C@H](CO)NC(=O)[C@H](Cc1c[nH]cn1)NC(=O)[C@H](CC(N)=O)NC(=O)[C@H](CC(C)C)NC(=O)[C@H](CO)NC(=O)CNC(=O)[C@H](Cc1c[nH]c2ccccc12)NC(=O)[C@@H]1CCCN1C(=O)[C@@H](NC(=O)[C@H](CO)NC(=O)[C@H](C)NC(=O)[C@H](CO)NC(=O)[C@H](CC(C)C)NC(=O)[C@H](CC(C)C)NC(=O)[C@H](CC(=O)O)NC(=O)[C@H](CS)NC(=O)[C@@H](NC(=O)[C@H](C)N)[C@@H](C)O)[C@@H](C)O)[C@@H](C)O)C(=O)N[C@@H](CS)C(=O)N[C@@H](CCCNC(=N)N)C(=O)N[C@@H](CS)C(=O)N[C@@H](CCCNC(=N)N)C(=O)N[C@@H](CCCNC(=N)N)C(N)=O | – | DH5α | – | > 100 µg/mL |
| CC(C)C[C@H](NC(=O)CN)C(=O)N[C@@H](CC(C)C)C(=O)N[C@@H](CCCCN)C(=O)N[C@@H](CC(C)C)C(=O)N[C@@H](CC(C)C)C(=O)N[C@@H](CCCCN)C(=O)N[C@@H](CCCCN)C(=O)N[C@@H](CC(C)C)C(=O)N[C@@H](CC(C)C)C(=O)N[C@@H](CCCCN)C(=O)N[C@@H](CC(C)C)C(=O)N[C@@H](CC(C)C)C(=O)N[C@@H](CCCCN)C(N)=O | – | ATCC 25922, CAMHB | 18 h, 37 °C | > 19 µM |
| CCCCCCCCCCCCCCCCCCSCC1OC(OC2C(N)CC(N)C(OC3OC(CN)C(O)CC3N)C2O)C(O)C(N)C1O (stereo not shown) | – | BL21(DE3) | – | > 150 µg/mL |
| CC[C@H](C)[C@H](NC(=O)[C@H](C)NC(=O)[C@@H]1CCCN1C(=O)[C@H](CC(C)C)NC(=O)[C@H](Cc1ccccc1)NC(=O)[C@H](CCCCN)NC(=O)[C@H](CCSC)NC(=O)[C@H](C)NC(=O)[C@H](CCSC)NC(=O)[C@H](CCCCN)NC(=O)[C@H](C)NC(=O)[C@@H](NC(=O)[C@@H](NC(=O)CNC(=O)[C@H](Cc1ccccc1)NC(=O)[C@@H](N)Cc1ccccc1)C(C)C)[C@@H](C)CC)C(=O)N[C@@H](Cc1ccccc1)C(=O)N[C@@H](CCCCN)C(=O)N[C@@H](CCC(N)=O)C(=O)N[C@H](C(=O)N[C@@H](CCC(N)=O)C(=O)N[C@@H](CCCCN)C(=O)N[C@@H](CCCCN)C(=O)N[C@@H](CCCNC(=N)N)C(=O)N[C@@H](CCCCN)C(N)=O)[C@@H](C)CC | broth microdilution | ATCC 35218 | – | 6.25 µM |
| CC[C@H](C)[C@H](NC(=O)[C@H](CCC(=O)O)NC(=O)[C@H](CO)NC(=O)[C@H](CCCNC(=N)N)NC(=O)[C@@H](N)CO)C(=O)N[C@H](C(=O)N[C@@H](Cc1c[nH]cn1)C(=O)N[C@@H](CCC(N)=O)C(=O)N[C@@H](CCCNC(=N)N)C(=O)N[C@@H](CC(C)C)C(=O)N[C@@H](Cc1ccccc1)C(N)=O)C(C)C | broth microdilution | Mueller Hinton broth | – | > 400 µg/mL |
| CC[C@H](C)[C@H](NC(=O)[C@@H]1CC(=O)N[C@@H](CO)C(=O)N[C@@H](CC(C)C)C(=O)NCC(=O)N[C@@H](CO)C(=O)N[C@@H](CO)C(=O)N2CCC[C@H]2C(=O)N[C@@H](Cc2ccc(O)cc2)C(=O)N[C@@H](CC(N)=O)C(=O)N1)C(=O)N[C@@H](CC(C)C)C(=O)NCC(=O)N[C@@H](Cc1ccc(O)cc1)C(=O)N1CCC[C@H]1C(=O)N[C@@H](C)C(=O)N[C@@H](CC(C)C)C(=O)N[C@H](C(=O)N[C@H](C(=O)N[C@H](C(=O)N[C@@H](Cc1ccc(O)cc1)C(=O)N1CCC[C@H]1C(=O)O)[C@@H](C)CC)C(C)C)[C@@H](C)CC | – | – | – | > 128 µg/mL |
| CCCCCCCCCC(=O)N[C@@H](Cc1ccccc1)C(=O)N[C@@H](Cc1ccccc1)C(=O)N[C@@H](Cc1ccccc1)C(=O)N[C@@H](Cc1ccccc1)C(=O)N[C@@H](CCCCN)C(=O)N[C@@H](CCCCN)C(=O)N[C@@H](CCCCN)C(=O)N[C@@H](CCCCN)C(=O)N[C@@H](CCCCN)C(N)=O | broth microdilution | K12 | 16-24 h, 37 °C, prepared at pH 7 | > 32 µg/mL |
| Cc1cc(N)c2cc(NC(=O)c3ccc4c(-c5cccc(O)c5)cccc4c3)ccc2n1 | – | BW25113 wild type | – | > 200 µM |
| CCCCCCCCCCCCCC(=O)N[C@@H](Cc1ccc2ccccc2c1)C(=O)N[C@@H](CCCCN)C(=O)N[C@@H](CCCCN)C(=O)N[C@@H](CCCCN)C(=O)N[C@@H](CCCCN)C(N)=O | broth microdilution | K12, water pH 7 | 18 h, 37 °C | 16 µg/mL |
| C[C@H](N)[C@@H](CCCCCCCCCCCCCCC(=O)CCCCCCC[C@@H](O)[C@@H](C)N)O[C@@H]1O[C@H](CO)[C@H](O)[C@H](O)[C@H]1O | microbial growth, resazurin | ATCC10536 | 6 h | 10.9 µM |
| CCCCCCSCC1OC(OC2C(N)CC(N)C(OC3OC(CN)C(O)CC3N)C2O)C(O)C(N)C1O (stereo not shown) | – | BL21(DE3) | – | > 150 µg/mL |
| CC[C@H](C)[C@H](NC(=O)[C@H](CCCCN)NC(=O)[C@H](CC(N)=O)NC(=O)[C@H](CC(C)C)NC(=O)[C@H](Cc1ccccc1)NC(=O)[C@H](CCCCN)NC(=O)[C@H](CCCCNC(=N)N)NC(=O)[C@H](CC(C)C)NC(=O)[C@H](CC(C)C)NC(=O)[C@H](CCCCN)NC(=O)[C@H](CCCCNC(=N)N)NC(=O)[C@H](CC(C)C)NC(=O)CNC(C)=O)C(=O)N[C@@H](CCCCN)C(=O)N[C@@H](CCCCNC(=N)N)C(N)=O | broth microdilution | ATCC 25922 | – | 3.12 µM |

Excerpt of the above:
| Compound | test | system | setting | MIC |
| --- | --- | --- | --- | --- |
| CCCCCCCCCCCCCCCCCCSCC1OC(OC2C(N)CC(N)C(OC3OC(CN)C(O)CC3N)C2O)C(O)C(N)C1O (stereo not shown) | – | BL21(DE3) | – | > 150 µg/mL |
| CC[C@H](C)[C@H](NC(=O)[C@H](C)NC(=O)[C@@H]1CCCN1C(=O)[C@H](CC(C)C)NC(=O)[C@H](Cc1ccccc1)NC(=O)[C@H](CCCCN)NC(=O)[C@H](CCSC)NC(=O)[C@H](C)NC(=O)[C@H](CCSC)NC(=O)[C@H](CCCCN)NC(=O)[C@H](C)NC(=O)[C@@H](NC(=O)[C@@H](NC(=O)CNC(=O)[C@H](Cc1ccccc1)NC(=O)[C@@H](N)Cc1ccccc1)C(C)C)[C@@H](C)CC)C(=O)N[C@@H](Cc1ccccc1)C(=O)N[C@@H](CCCCN)C(=O)N[C@@H](CCC(N)=O)C(=O)N[C@H](C(=O)N[C@@H](CCC(N)=O)C(=O)N[C@@H](CCCCN)C(=O)N[C@@H](CCCCN)C(=O)N[C@@H](CCCNC(=N)N)C(=O)N[C@@H](CCCCN)C(N)=O)[C@@H](C)CC | broth microdilution | ATCC 35218 | – | 6.25 µM |
| CC[C@H](C)[C@H](NC(=O)[C@H](CCC(=O)O)NC(=O)[C@H](CO)NC(=O)[C@H](CCCNC(=N)N)NC(=O)[C@@H](N)CO)C(=O)N[C@H](C(=O)N[C@@H](Cc1c[nH]cn1)C(=O)N[C@@H](CCC(N)=O)C(=O)N[C@@H](CCCNC(=N)N)C(=O)N[C@@H](CC(C)C)C(=O)N[C@@H](Cc1ccccc1)C(N)=O)C(C)C | broth microdilution | Mueller Hinton broth | – | > 400 µg/mL |
